Published values of several laboratories.
Numbered parts are unrelated; each lists some results of a single study. Changes are numbered by the printed parent chain.

Study 1
Target: ABI1, truncated, D143A, DHFR fusion (Arabidopsis thaliana)
Technique: DHFR PCA, deep sequencing
Matrix: yeast
Setting: methotrexate growth selection, single substitutions
With: (+)-ABA 17 µM
Baseline: wild-type fitted maximum
Direction: higher = stronger binding
Quantity: relative binding score
Parent: PYL1, truncated, DHFR fusion (Arabidopsis thaliana); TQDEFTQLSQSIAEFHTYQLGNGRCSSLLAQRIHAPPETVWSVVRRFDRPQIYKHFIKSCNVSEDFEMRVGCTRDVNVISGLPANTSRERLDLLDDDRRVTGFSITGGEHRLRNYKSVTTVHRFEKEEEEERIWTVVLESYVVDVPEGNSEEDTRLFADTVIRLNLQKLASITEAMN; partner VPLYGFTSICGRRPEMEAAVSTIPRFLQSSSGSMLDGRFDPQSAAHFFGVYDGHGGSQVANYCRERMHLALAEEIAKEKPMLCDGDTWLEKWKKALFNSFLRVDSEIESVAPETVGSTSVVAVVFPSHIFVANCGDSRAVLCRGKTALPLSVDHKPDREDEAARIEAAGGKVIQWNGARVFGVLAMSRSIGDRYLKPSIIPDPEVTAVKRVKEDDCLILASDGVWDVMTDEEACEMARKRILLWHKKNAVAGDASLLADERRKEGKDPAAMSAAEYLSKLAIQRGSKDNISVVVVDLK
L138W: 6.57%
N61F: 86.7%
R98N: 81.3%
A158I: 103%
C25L: 43.1%
I133G: 103%
V118R: 99.7%
F47H: -8.78%
R45F: -19.2%
T160W: 50.8%
L93C: 81.9%
K126F: 80.2%
V145Y: -10.2%
M68H: 65.3%
R98S: 54.5%
T39I: 85.1%
E127P: 96%

Study 2
Target: Ras GTPase-activating protein-binding protein 1, C-terminal RGG region (G3BP1, Homo sapiens, UniProt Q13283)
UniProt Q13283, sequence (whole entry, looked up): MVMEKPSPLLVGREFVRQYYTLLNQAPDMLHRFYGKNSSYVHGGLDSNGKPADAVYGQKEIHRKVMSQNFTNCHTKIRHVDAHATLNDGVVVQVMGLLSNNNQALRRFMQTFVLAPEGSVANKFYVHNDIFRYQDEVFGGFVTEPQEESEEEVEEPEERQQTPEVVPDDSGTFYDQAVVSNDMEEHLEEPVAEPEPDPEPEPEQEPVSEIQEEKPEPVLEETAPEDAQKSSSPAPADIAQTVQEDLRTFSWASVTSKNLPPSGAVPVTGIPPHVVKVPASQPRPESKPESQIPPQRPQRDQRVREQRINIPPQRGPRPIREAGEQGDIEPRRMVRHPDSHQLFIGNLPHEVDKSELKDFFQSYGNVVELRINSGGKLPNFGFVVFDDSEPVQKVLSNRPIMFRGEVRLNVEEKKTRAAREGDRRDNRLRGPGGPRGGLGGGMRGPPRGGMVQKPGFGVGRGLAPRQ
Technique: RNA Bind-n-Seq
Form: RNA
Matrix: in vitro
Tested at: 1 µM
Setting: whole 134-nt RNA, ends assumed
With: 150 mM KCl
Baseline: input library
Direction: higher = stronger binding
Quantity: log2 enrichment
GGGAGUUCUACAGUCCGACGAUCCAAGUCCUGUGCUACACAUCGUAUGUACCGAAUCGGGUGGGAAAAAGGGUUUGGGAAAGUAUUAUGUUACGCCGUUCGGAUCUGCACUUCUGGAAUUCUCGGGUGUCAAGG: 1.67
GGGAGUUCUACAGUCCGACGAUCGUCCUGUGCUACACAUCGUAUGUACCGAAUCGGGGUGGGGAAAAAGGGGUUUUUGGGGAAAGUAUUAUGUUACGCCGUUCGGAUCUGCACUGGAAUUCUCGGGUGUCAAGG: 1.8
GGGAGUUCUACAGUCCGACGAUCCUGUGCUACACAUCGUAUGUACCGAAUCGGGGUUUUUGGGGAAAAAGGGGUUUUUUUGGGGAAAGUAUUAUGUUACGCCGUUCGGAUCUGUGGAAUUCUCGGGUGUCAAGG: 0.858
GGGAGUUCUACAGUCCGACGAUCACCAUGCAGGUGGGCAUCUUUGGGAAGUGGGGCAAGGGGGGGAUAGGGAGCGGGGUAACACUUUGGGAACAGGUGGUCCCAGGUCGUUUCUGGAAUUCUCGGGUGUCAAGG: 2.5
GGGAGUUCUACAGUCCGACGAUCAAGUCCUGUGCUACACAUCGUAUGUACCGAAUCGGGUUUGGGGUUUGGGGUUUGGGAAAGUAUUAUGUUACGCCGUUCGGAUCUGCACUUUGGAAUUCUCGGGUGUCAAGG: 1.77
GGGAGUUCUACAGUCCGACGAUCACCAUGCUGGUGGGCAUCUUUGGGAAGUGGGGCAAGGGGGGGAUAGGGAGGGGGGUAACACUUUGGGAACAGGUGGUCCCAGGUCGUUUCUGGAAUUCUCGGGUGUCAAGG: -1.61
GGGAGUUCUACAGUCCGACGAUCUAGUGAUGAAAAAUUUCUCCCUUCUAGGUUUCCCUUGGGGGCUUUGAAAUAACACCACCAGUGGUCUUAAGGUUGAAGUGUGGUUCAGGGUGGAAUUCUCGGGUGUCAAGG: -0.741
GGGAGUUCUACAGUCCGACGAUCCAAGUCCUGUGCUACACAUCGUAUGUACCGAAUCGGUUUUUUUGGUUUGGUUUGGAAAGUAUUAUGUUACGCCGUUCGGAUCUGCACUUCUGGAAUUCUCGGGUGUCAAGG: -1.81
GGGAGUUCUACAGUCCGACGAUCCACAGACAACACGCACCCACACAGACACAGAGGGAAGGGGUUGGGAUGGGGACAGGGUGCACAGCAGUGCGGGGUAGGACCCCAGCCCCUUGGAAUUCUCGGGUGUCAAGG: -0.591

Study 3
Target: Histone acetyltransferase KAT6A, both winged helices, GST fusion (KAT6A, Homo sapiens, UniProt Q92794, residues 1-181)
Technique: protein binding microarray
Form: double-stranded DNA, one strand shown
Matrix: in vitro
Tested at: not given
Setting: 8-mer, flanks averaged, mean of 2 arrays, mostly near background
Baseline: not given
Direction: higher = stronger binding
Quantity: E-score
Construct (chain): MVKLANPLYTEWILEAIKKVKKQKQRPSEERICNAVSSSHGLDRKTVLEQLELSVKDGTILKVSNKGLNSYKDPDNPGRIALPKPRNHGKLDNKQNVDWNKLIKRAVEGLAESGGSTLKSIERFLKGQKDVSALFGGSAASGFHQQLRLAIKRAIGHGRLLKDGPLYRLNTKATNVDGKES
AAGCGACC: 0.109
AGTAGACC: -0.0365
AGGATATG: -0.131
CGTCCTCC: 0.0583
GAGACCTC: -0.071
CCCGTCAG: 0.16
ACTTTACG: 0.0126
CTGAGCAC: -0.0881
CACAGGGC: -0.109
AATTTGGG: -0.239
AGGCCGAC: 0.0433
ACTCCATA: -0.158
AAGATTGG: -0.0696
ACCTTAAG: -0.0366
CTCGTAGA: -0.181
GACCTAAC: -0.0589
CTTTCATC: -0.201

Study 4
Target: RNA binding protein fox-1 homolog 2, RRM domain, GST-SBP tag (RBFOX2, Homo sapiens, UniProt O43251-10, residues 100-194)
Technique: RNA Bind-n-Seq
Form: RNA
Matrix: in vitro
Tested at: 365 nM
Setting: natural RNA segment, single round, ends assumed
Baseline: no-protein control
Direction: higher = stronger binding
Quantity: RBNS enrichment (R)
Target sequence (chain): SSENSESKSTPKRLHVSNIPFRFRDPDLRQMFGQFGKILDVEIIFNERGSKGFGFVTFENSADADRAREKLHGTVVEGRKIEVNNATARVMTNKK
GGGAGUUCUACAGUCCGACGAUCAGACUGUUGAUGAUAUGAAGGCCUUUUGUAAGAAAAUAAAAAAUAAAGUAAAUUGCCUGUCUCUCUGGUUGGGCUUGAGAUUUAAGGUCUGUGGACAUGCACAGGAUUGGUGGAAUUCUCGGGUGCCAA: 1.97
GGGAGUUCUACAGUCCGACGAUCCCUGACCUGCCAGUGAUGCCAAGAGGGGGAUCAAGCACUGGCCUCUGCCCCUCCUCCUUCCAGCACCUGCCAGAGCUUCUCCAGGAGGCCAAGCAGAGGCUCCCCUCAUGUGGAAUUCUCGGGUGCCAA: 0.283
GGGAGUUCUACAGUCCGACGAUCGGGCUAGGGUAUGUGGUUUCCUCAGUCCUAAACGUCUGUGUGGCCAACUCAGCAUCUGCUUCCAGAAGUUUCCCACUUGCAGAUGUUCAGUGCAGUUACAGACAUGCGUUUGGAAUUCUCGGGUGCCAA: 0.498
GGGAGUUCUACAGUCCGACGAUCCUACAAGCCACCUCAGUUAACUUUGGUUCCCCGUGGACUCCCAGGCUGGAGGAGGAAAGCGUGAGGACGGGGAUGAUUUUGAUCACGAUUCCAUUUAUUGCCUUUACAUAUGGAAUUCUCGGGUGCCAA: 1.39
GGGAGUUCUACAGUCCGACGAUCCUUGUCCAGCCUCCUGCUACCGCUGCCCACCUCCUGCCUCCAUUGCCCAGGCCACACUAGUUGGCCCCAGCACUCUACCUUAGGCCCAGGCUGGCCACAGGCAGUGGGCAUGGAAUUCUCGGGUGCCAA: 0.343
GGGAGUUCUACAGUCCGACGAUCUCUCUUCUCUUCUUUGAGACAGGGUUUCACUCACUUUGUAACCCUAGCUGGCCUGGAAUUCACUAUGUAGAGCAGACUGGUCUUGAACUCACAGUCACAGAGAUCACCUGUGGAAUUCUCGGGUGCCAA: 0.314
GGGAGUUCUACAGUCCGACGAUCGUUUAUCCUAAGGGAAUACCACUUUGCUCCCUGUGCAUAGUUUAGGAACUGUAGUCCUAGGAGGAAACAGCUUUAAAUAUUGGUAGUGAGUUGUCUAAGAUCAGGACUGUUGGAAUUCUCGGGUGCCAA: 1.35
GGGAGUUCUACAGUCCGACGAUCUCUGAGAUAGGUAGAAGUCUUGAGACGGAGGCUGGCCAUCCAUUCAGCCCUGAGCGUGCUGAGUUCUGUGUUUCUCUGAAUAGAGGUGUGGAACCUGAGGGGCCAGCAGGUGGAAUUCUCGGGUGCCAA: 0.8
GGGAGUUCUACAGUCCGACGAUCAAAAUCUGCUAAACAUUUGCAAUCUUACAUUUGUAUUUUAAUACCAGAGUGAGGUUUAGCUUUGUCUUUCUGGGAUUCUCAGGUUCCACAGUAAUUACAAGCUGACUUUUUGGAAUUCUCGGGUGCCAA: 0.434
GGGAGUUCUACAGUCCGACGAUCACCAAAAUGGCUUAUCGUCAUUCAAAAAACCUGUGACAUAGGCAGGCCUUGGAAUUUUGCUCCUUUAGUGGUAAGCAUGGGGCAUGGUUUGCUUUGGGGGGAGGAUGUUAUGGAAUUCUCGGGUGCCAA: 2.61
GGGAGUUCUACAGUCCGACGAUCCCAACUUUGACGGAUUUCUGUGUGGAGAGUUGAGAUUUCUAUUUCCUGUUUUGGUUUAACAGUUUCUGAGAUACGUGUGUUAUAGGUUCAUUUACUACGAUCUGUCCACAUGGAAUUCUCGGGUGCCAA: 0.382
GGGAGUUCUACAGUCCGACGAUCUAUUCUAGGAUCCUAUUAGUCUGCUUUUCAUAUACUGUACUUUGAGUAUAGGGAAUGGGCACUGAGUCACUGAGAACACUUGCAGGGUUGACUUUGCAUAUAGGGCUCCCUGGAAUUCUCGGGUGCCAA: 0.298

Study 5
Target: Sal-like protein 4, full length isoform B (SALL4, Homo sapiens, UniProt Q9UJQ4-2, residues 1-616)
Technique: universal PBM
Form: double-stranded DNA, one strand shown
Matrix: in vitro
Tested at: not given
Setting: 8-mer, flanks averaged, mean of replicates
Direction: higher = stronger binding
Quantity: E-score
GCCCAACA: -0.237
CAGCACTG: -0.231
AGTGGTGA: -0.00787
CAGGGCAG: -0.209
CCAGCGGA: -0.348
CAAAGGTA: 0.0548
CGCCGGAG: -0.239
CCTCGAGA: -0.12
AGAGCGCA: -0.228
ATAATTGA: 0.366
GCCGTTTA: 0.0295
ATTGTCTG: 0.189
CTCGCCAC: -0.191
AATCGAAA: 0.102
AACAGCTT: -0.0705
CATCAGGG: -0.0558
ATAGGCCC: -0.132
GCACGAAC: 0.0353
GTGCCCAC: -0.236
GAAACCCA: -0.0389
AAAACGAT: 0.17
ACATCTAC: 0.191
AATCATTG: 0.248
AACCTAAG: -0.0284
AGAAGCAG: -0.0581

Repeated from above (study 5):
ATTGTCTG: 0.189
CTCGCCAC: -0.191
AATCGAAA: 0.102
AACAGCTT: -0.0705
CATCAGGG: -0.0558
ATAGGCCC: -0.132
GCACGAAC: 0.0353
GTGCCCAC: -0.236
GAAACCCA: -0.0389
AAAACGAT: 0.17
ACATCTAC: 0.191
AATCATTG: 0.248
AACCTAAG: -0.0284
